Results collected from several papers.
± marks the error that the study gave.
Chain of UniProt Q9UJZ1 (whole entry, looked up): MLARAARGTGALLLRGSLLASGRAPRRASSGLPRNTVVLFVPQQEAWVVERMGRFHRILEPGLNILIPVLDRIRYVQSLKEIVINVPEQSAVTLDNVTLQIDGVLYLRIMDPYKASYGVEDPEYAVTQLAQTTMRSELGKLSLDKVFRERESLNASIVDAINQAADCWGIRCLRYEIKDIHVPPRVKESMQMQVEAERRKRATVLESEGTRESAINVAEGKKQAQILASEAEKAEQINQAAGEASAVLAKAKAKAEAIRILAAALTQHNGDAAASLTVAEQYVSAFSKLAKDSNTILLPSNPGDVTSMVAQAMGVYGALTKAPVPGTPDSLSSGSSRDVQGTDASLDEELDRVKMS
Chain of UniProt O43603 (whole entry, looked up): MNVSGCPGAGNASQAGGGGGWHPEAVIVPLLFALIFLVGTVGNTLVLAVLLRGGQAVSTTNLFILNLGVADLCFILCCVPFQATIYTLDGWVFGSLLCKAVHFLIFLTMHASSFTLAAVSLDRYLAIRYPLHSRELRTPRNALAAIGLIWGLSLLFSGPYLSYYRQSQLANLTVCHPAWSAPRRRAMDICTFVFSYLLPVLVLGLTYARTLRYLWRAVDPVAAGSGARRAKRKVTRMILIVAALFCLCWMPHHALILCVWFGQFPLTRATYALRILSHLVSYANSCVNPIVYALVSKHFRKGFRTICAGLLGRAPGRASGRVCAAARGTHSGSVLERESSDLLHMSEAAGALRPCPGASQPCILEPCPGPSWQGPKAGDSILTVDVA
Chain of UniProt O75716 (whole entry, looked up): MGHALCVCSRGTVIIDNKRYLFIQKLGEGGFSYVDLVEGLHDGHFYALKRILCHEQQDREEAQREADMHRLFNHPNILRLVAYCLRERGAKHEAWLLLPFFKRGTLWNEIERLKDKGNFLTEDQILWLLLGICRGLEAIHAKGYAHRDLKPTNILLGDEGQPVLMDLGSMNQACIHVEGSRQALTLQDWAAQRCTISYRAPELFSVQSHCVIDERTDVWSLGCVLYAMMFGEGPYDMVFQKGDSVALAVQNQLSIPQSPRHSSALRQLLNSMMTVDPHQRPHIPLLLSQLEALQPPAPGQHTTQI

CCCC(NC)C(=O)c1ccc2c(c1)OCO2 (racemic)  locomotor recovery time (C57BL/6J male mice; sc, 30 mg/kg): ~60 min
COC(=O)[C@H]1[C@@H](OC(=O)c2ccccc2)C[C@@H]2CC[C@H]1N2C  maximum response rate (self-administration; Sprague-Dawley rat, male; intravenous, 0.32 mg/kg/injection, fourth component): 0.281 ± 0.11 responses/s
CC[C@H](C)[C@H](NC(=O)[C@H](Cc1ccccc1)NC(=O)[C@H](CCC(=O)O)NC(=O)[C@H](CCCNC(=N)N)NC(=O)[C@H](C)NC(=O)[C@H](C)NC(=O)[C@H](CCC(N)=O)NC(=O)[C@H](CCC(=O)O)NC(=O)[C@H](CCC(=O)O)NC(=O)[C@H](CC(C)C)NC(=O)[C@H](Cc1ccc(O)cc1)NC(=O)[C@H](CO)NC(=O)[C@H](CO)NC(=O)[C@@H](NC(=O)[C@H](CC(=O)O)NC(=O)[C@H](CO)NC(=O)[C@@H](NC(=O)[C@H](Cc1ccccc1)NC(=O)[C@@H](NC(=O)CNC(=O)[C@H](CCC(=O)O)NC(=O)[C@H](C)NC(=O)CCc1c[nH]cn1)[C@@H](C)O)[C@@H](C)O)C(C)C)C(=O)N[C@@H](C)C(=O)N[C@@H](Cc1c[nH]c2ccccc12)C(=O)N[C@@H](CC(C)C)C(=O)N[C@H](C(=O)N[C@@H](CCCNC(=N)N)C(=O)NCC(=O)N[C@@H](CCCNC(=N)N)C(=O)N[C@@H](CCCCNC(=O)COCCOCCNC(=O)COCCOCCNC(=O)CC[C@H](NC(=O)CCCCCCCCCCCCCCCCC(=O)O)C(=O)O)C(=O)NCC(=O)NCC(=O)N[C@@H](CO)C(=O)N[C@@H](CCCCNc1c(NCCCCCN(O)C(=O)CCC(=O)NCCCCCN(O)C(=O)CCC(=O)NCCCCCN(O)C(C)=O)c(=O)c1=O)C(=O)O)C(C)C [zirconium-89 labelled]  tissue uptake (rat, kidney; iv, 3 nmol/kg, 4 h, ex vivo): 4.75 %ID/g
CCN(CC)C(=O)[C@@H]1C=C2c3cccc4[nH]cc(c34)C[C@H]2N(C)C1  participants rating experience more valuable (healthy participants; dose not given, end-of-study assessment; baseline: compound over placebo): 61%
CC(C)C[C@H](CN)CC(=O)O  LEP N2-P2 amplitude difference (laser-evoked potentials; healthy male subjects, capsaicin responders, capsaicin-treated skin; 150 mg; baseline: placebo): -3.53 µV
C#CCN(C)[C@H](C)Cc1ccccc1  evoked spike probability (dentate gyrus granule cells, APP/PS1 mice; oral, 10 mg/kg, 336 h, 2 weeks treatment, added: 300 µA stimulation): 0.644 ± 0.162
CC(C)C[C@H](CN)CC(=O)O  ED50 (mechanical withdrawal threshold; mouse, carrageenan inflammatory pain; oral): 6.72 mg/kg
C[C@H]1CN(c2n[nH]c3nc(N[C@H]4CC[C@H](NS(=O)(=O)CCC(F)(F)F)CC4)ncc23)CCO1  IC50 (Stomatin-like protein 2, mitochondrial (Homo sapiens, UniProt Q9UJZ1); biochemical): ≥ 20 µM
C[C@@H](O)[C@@H](CO)NC(=O)[C@@H](CCCNC(=N)N)NC(=O)[C@@H]1CCCN1C(=O)[C@@H]1CSSC[C@H](NC(=O)[C@H](Cc2ccccc2)NC(=O)CN2CCN(CC(=O)O)CCN(CC(=O)O)CCN(CC(=O)O)CC2)C(=O)N[C@@H](Cc2ccc(O)cc2)C(=O)N[C@@H](Cc2ccccc2)C(=O)N[C@@H](CCC(N)=O)C(=O)N[C@@H](CC(N)=O)C(=O)N1 [gallium-68 labelled]  radiochemical purity (human serum; 3 h, 37 °C): > 99%
C[C@]12CC[C@H]3[C@@H](CC=C4CC(O)CC[C@@]43CO)[C@@H]1CCC2O (stereo partly drawn)  liver marker protein levels (immunoblot, measured: cleaved caspase-3, TGF-β1, ACTA2, CD11B; rat, GAN diet-induced MASH, liver; dose not given; baseline: vehicle): decreased
CNC1(c2ccccc2Cl)CCCCC1=O (racemic)  extracellular glutamate (intracerebral microdialysis; BALB/cJ mice, medial prefrontal cortex; intraperitoneal, 10 mg/kg single, 24 h; baseline: vehicle): increased
NCC1(CC(=O)O)CCCCC1  change in licking score (mouse, formalin paw test; oral, 300 mg/kg, late phase; baseline: vehicle, direction not given): -76%
Cn1cc(Nc2nccc(-c3ccc4c(c3)CN(C3COC3)CC[C@H]4NC(=O)c3cn(C(C)(C)C)nn3)n2)cn1  pathway activation z-score (measured: PI3K/AKT in influenza; splenic B cells, mice; 30 mg/kg, IgD-activated in vivo; baseline: vehicle, direction not given): 3.32
C[C@@H](O)[C@H](NC(=O)[C@@H]1CSSC[C@H](NC(=O)[C@@H](Cc2ccccc2)NC(=O)CN2CCN(CC(=O)[O-])CCN(CC(=O)[O-])CCN(CC(=O)[O-])CC2)C(=O)N[C@@H](Cc2ccc(O)cc2)C(=O)N[C@H](Cc2c[nH]c3ccccc23)C(=O)N[C@@H](CCCCN)C(=O)N[C@@H]([C@@H](C)O)C(=O)N1)C(=O)O.[177Lu+3]  cell uptake (MEC1; 60 min, 37 °C): 1.34%
CCCCCn1cc(C(=O)C2C(C)(C)C2(C)C)c2ccccc21  ED50 (spontaneous locomotor activity, mouse tetrad; ICR mouse male; intravenous): 1 µmol/kg
[2H]c1c([2H])c([C@]2([2H])CCCN2C(=O)C(C)(C)Oc2ccc3cn[nH]c3c2)c([2H])c([2H])c1C([2H])([2H])[2H]  remaining binding (STK16 (Homo sapiens, UniProt O75716); KINOMEscan; 1 µM; baseline: DMSO control): 88%
CCCCCc1cc(O)c2c(c1)OC(C)(C)[C@@H]1CCC(C)=C[C@@H]21  ED50 (spontaneous activity; ICR mouse, male; intravenous): 15 µmol/kg
CN[C@@H](C)C(=O)c1ccccc1  Emax (ICSS facilitation, intracranial self-stimulation; rat; baseline: baseline): 189%
CC1(C)C(C(=O)c2cn(CCCCCF)c3ccccc23)C1(C)C  ED50 (antinociception, tail withdrawal warm water; ICR mouse male; intravenous): 3.3 µmol/kg
CN1CCN(c2cc(-c3ccncc3)c(-c3ccc4ccccc4c3)nn2)CC1  activation (GALR2 (Homo sapiens, UniProt O43603); agonist, FLIPR; 12.5 µM): -1.8%
COC(=O)[C@@H](NC(=O)c1nn(Cc2ccc(F)cc2)c2ccccc12)C(C)(C)C  ED50 (reversal of mechanical allodynia; mouse, spared nerve injury model; intraperitoneal): 0.01 mg/kg

For quick reference, copied from above:
[2H]c1c([2H])c([C@]2([2H])CCCN2C(=O)C(C)(C)Oc2ccc3cn[nH]c3c2)c([2H])c([2H])c1C([2H])([2H])[2H]  remaining binding (STK16 (Homo sapiens, UniProt O75716); KINOMEscan; 1 µM; baseline: DMSO control): 88%
CCCCCc1cc(O)c2c(c1)OC(C)(C)[C@@H]1CCC(C)=C[C@@H]21  ED50 (spontaneous activity; ICR mouse, male; intravenous): 15 µmol/kg
